Published values from different studies.
A part holds a random share of what one study measured. Positions count from the first letter of the parent shown.

Block 1 — method: RNA Bind-n-Seq; molecule type: RNA; medium: in vitro; tested at: 100 nM; baseline: input RNA pool; reading: higher = stronger binding; measurement: bound/input enrichment
Target: RING finger protein unkempt homolog, zinc fingers 1-6, SBP tag (UNK, Homo sapiens, UniProt Q9C0B0, residues 30-357)
Sequence of UniProt Q9C0B0 (30-357, looked up): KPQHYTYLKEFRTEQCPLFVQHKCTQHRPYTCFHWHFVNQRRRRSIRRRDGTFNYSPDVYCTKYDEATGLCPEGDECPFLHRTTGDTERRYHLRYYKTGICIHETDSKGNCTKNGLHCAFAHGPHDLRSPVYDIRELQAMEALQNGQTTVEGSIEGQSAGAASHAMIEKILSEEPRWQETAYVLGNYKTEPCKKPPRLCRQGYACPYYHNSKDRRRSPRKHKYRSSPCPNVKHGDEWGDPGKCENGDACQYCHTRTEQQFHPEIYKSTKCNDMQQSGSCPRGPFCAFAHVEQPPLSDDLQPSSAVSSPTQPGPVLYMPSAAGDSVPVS
Setting: RNA with constant flanks, vertebrate orthologous sites, ends assumed
Shared flanks, not repeated: GGGAGUUCUACAGUCCGACGAUC … CAACAGAGGAUUGAGCAUCA
AGUAGUUUAAAGCUUGUUUGCACAGUUCUUUUUUUCCAUUGGAAAUGGAAUUCAUUGCCUUAGGUCUUUUUAAAUAGUGUAUUAUUAUCGUUGGGGCUGGCUCUAUGCUUGAAAACCAGU: 3.06 ratio
ACAUUAUGGGUUACUCUCAUUUCUGUAGCAGAUAGAACAUUUUGCAAAACAUGUAUACACCUAGCUAAGCUGAGUAUAAUAUAUUUUUAUUAGACUGUAAAUAAAUACUCUUCUGCAUUG: 0.518 ratio
UCCCCGUUACCCCUAAAGUAGACCAUUUUUUAAAUUGUGUUGCCACCACUUCUAAAAAUUUAGCAAUAUUAGAAUAGGAUACUAGUGAAGUAAGAAAUUUUGCUUGUUGUUUUGCAAACC: 5.07 ratio
CACGUCUGGUGAUAUUUGGCCUGGCCUUUCAGCUUAUGAUAAUAGUCCCAGAUCGCCCCAUAGUCCUUCACCAAUCGCUACACCACCUAGUCAGAGUUCAUCUUGCUCUGAUGCCCCCAU: 0.905 ratio
AUGGGAAAUACUCUGGGGAGUGGCUGGACACUUAGCGUUGUUUGAUUUAUGACCUUGACAGUAGAUAGGCUUGUGGGGGUUUUUGUUUUUGUUUUUUAAUUUAAUGAUAUUAAAACUUAA: 0.981 ratio
CAACGCCAUGGUGGACGGCUCAGAGCUGAGGAAAGUGCGCUCCAACUCCAGAGUGUACCACCGAUACUUUCUGCUGGAUGCUGAUAUGCAGUCUCUUAGGUGGGAGCCCUCUAAAAAGGA: 0.428 ratio
CCCACCCAGCUCACACCAGCAGCUUGCUCUCACACGUGCACAGCCUGCAAAGGAACAGUCUCGAGGGAUUUUUAUUUUAAUUUAAAACCUGCUUUUCCCAAAACUGAUCAAGAAGCUACG: 0.496 ratio
UUGUACUGCGAAAGUCAUCCUACCUCUAAAACUGCACAGUGAUCCCAAACUAGUCUAUAUUAGGGAAUCACUUGCUGUCACAUUGUCAUUGGUGUGUGUCUGAUCCCUGAACUGGUCACA: 0.612 ratio
GUCGUCUGAUUGGAUGAAGACUGUCCCAAGUUACAACCAAACAAAUAGCUCCAUGGACUUUAGAAAUUACAUGAUGAGAGAUGAGAAUCUGGAACCACUGCCCAAAAACUGGGAAAUGGC: 0.672 ratio
GAAGUUCCCCAUUGUCACUGAGAACCACCAAAUCUGACUUUUACAUUUGGUCUCAGAAUUUAGGUUCCUGCCCUGGUUUUUUUUUUUUUUUUUCUUUAAACCGUUUCCAAAAGUUCUUAA: 0.888 ratio
UGGUGACGUGCUUGCUGUCUGUCCCCCGCGGGGGCCCGGCCGGCUGUCUCUCGGACGUGUGACCUGUCGCACAGGAAGAGGUGUGCCCAGGUCAUCCUGCUGAAUUCCUCUCUGAGUCUG: 0.627 ratio

Block 2 — target: UBE2J2 UBC core domain (UniProt Q8N2K1); method: yeast two-hybrid; medium: yeast; setting: mostly zero background; baseline: not given; reading: higher = stronger interaction; measurement: lacZ reporter activity
B1: RNF32 RING domain (UniProt Q9H0A6); chain SLLQGDSVQPCPICKEEFELRPQVLLSCSHVFHKACLQAFEKFTNKKTCPLCRKNQYQTRVIH
B2: TRIM38 RING domain (UniProt O00635); chain STKKMMEEATCSICLSLMTNPVSINCGHSYCHLCITDFFKNPSQKQLRQETFCCPQCRAPFHMDSLRP
B3: ANKIB1 RING domain (UniProt Q9P2G1); chain LSPGDLDTSLCDICMCSISVFEDPVDMPCGHDFCRGCWESFLNLKIQEGEAHNIFCPAYDCFQLVPVDIIE
B4: RNF4 RING domain (UniProt P78317); chain TGLRPSGTVSCPICMDGYSEIVQNGRLIVSTECGHVFCSQCLRDSLKNANTCPTCRKKINHKRYHP
B5: UBE4A RING domain (UniProt Q14139); chain LQQQEEETYADACDEFLDPIMSTLMCDPVVLPSSRVTVDRSTIARHLLSDQTDPFNRSPLTMDQIRPNTELKEKIQRWLAERKQQKEQLE
B6: NSMCE1 RING domain (UniProt Q8WV22); chain RETYPDAVKICNICHSLLIQGQSCETCGIRMHLPCVAKYFQSNAEPRCPHCNDYWPHEIPKV
B7: RNF112 RING domain (UniProt Q9ULX5); chain QPMAPRELPTCSICLERLRDPISLDCGHDFCIRCFSTHRLPGCEPPCCPECRKICKQKRGLR
B8: RNF150 RING domain (UniProt Q9ULK6); chain DKETESDFDNCAVCIEGYKPNDVVRILPCRHLFHKSCVDPWLLDHRTCPMCKMNILKALGIP
Residues (chain): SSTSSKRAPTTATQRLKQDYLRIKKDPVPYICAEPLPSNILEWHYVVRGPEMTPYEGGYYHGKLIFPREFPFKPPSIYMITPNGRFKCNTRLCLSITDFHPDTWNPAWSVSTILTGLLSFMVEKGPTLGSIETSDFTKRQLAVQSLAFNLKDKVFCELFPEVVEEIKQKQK
B1 (RNF32 RING domain): 0
FLKKLEQSFMCVCCQELVYQPVTTECFHNVCKDCLQRSFKAQVFSCPACRHDLGQNYIMI (UHRF2 RING domain (UniProt Q96PU4)): 2510
B2 (TRIM38 RING domain): 0
ISNDSETLEECMVCSDMKRDTLFGPCGHIATCSLCSPRVKKCLICKEQVQSRTKIE (MIB1 RING domain (UniProt Q86YT6)): 0
B3 (ANKIB1 RING domain): 0
SYEDKSNDFVCPICFDMIEEAYMTKCGHSFCYKCIHQSLEDNNRCPKCNYVVDNIDHLY (COP1 RING domain (UniProt Q8NHY2)): 0
B4 (RNF4 RING domain): 0
B5 (UBE4A RING domain): 0
KRQCSDVDDICSICQAEFQKPILLICQHIFCEECMTLWFNREKTCPLCRTVISDHINKW (RNFT1 RING domain (UniProt Q5M7Z0)): 8880
QLQDEEDDSLCRICMDAVIDCVLLECGHMVTCTKCGKRMSECPICRQYVVRAVHVF (RNF34 RING domain (UniProt Q969K3)): 0
MANWVFCNRCFQPPHRTSCFSLTNCGHVYCDACLGKGKKNECLICKAPCRTVLLSK (RNF212 RING domain (UniProt Q495C1)): 0
B6 (NSMCE1 RING domain): 2510
B7 (RNF112 RING domain): 0
B8 (RNF150 RING domain): 0

Block 3 — target: CCNA2, cyclin fold, Cln2 fusion (human); method: yeast growth competition, sequencing; medium: yeast; setting: strong parent motif; baseline: not given; reading: higher = stronger binding; measurement: normalised enrichment score
Starting sequence: RB1 docking peptide (human); PKPLKKLRFDIEG
PNPLKKLRFDIEG [K2N]: 0.548
WKPLKKLRFDIEG [P1W]: 2.1
PFPLKKLRFDIEG [K2F]: 0.729
PKPLKKLRGDIEG [F9G]: 1.35
PPPLKKLRFDIEG [K2P]: 0.461
PKPLKKLRFDIES [G13S]: 1.45
PKPLKKRRFDIEG [L7R]: 0.625
PKPLKKLPFDIEG [R8P]: 0.913
LKPLKKLRFDIEG [P1L]: 0.415
PKPLKKLDFDIEG [R8D]: 1.57
PKPLKKLRFDIFG [E12F]: 2.06
PKPLKKLIFDIEG [R8I]: 1.97
PKPLKKLRFDIED [G13D]: 0.965
PKPLKKLHFDIEG [R8H]: 0.766
PKPLTKLRFDIEG [K5T]: 0.954
PKPLHKLRFDIEG [K5H]: 1.2
PKPWKKLRFDIEG [L4W]: 1.31
IKPLKKLRFDIEG [P1I]: 1.11
PKPLKGLRFDIEG [K6G]: 1.02
PKPLWKLRFDIEG [K5W]: 1.27
PKPLKKLRFDIEI [G13I]: 1.97
PKPCKKLRFDIEG [L4C]: 3.3
PKPLKKLRFDIKG [E12K]: 0.652
PKPLLKLRFDIEG [K5L]: 1.16
PQPLKKLRFDIEG [K2Q]: -0.227

Block 4 — method: RNA Bind-n-Seq; molecule type: RNA; medium: in vitro; tested at: 365 nM; baseline: no-protein control; reading: higher = stronger binding; measurement: RBNS enrichment (R)
Target: RNA binding protein fox-1 homolog 2, RRM domain, GST-SBP tag (RBFOX2, Homo sapiens, UniProt O43251-10, residues 100-194)
Setting: natural RNA segment, single round, ends assumed
Shared flanks, not repeated: GGGAGUUCUACAGUCCGACGAUC … UGGAAUUCUCGGGUGCCAA
Target sequence (chain): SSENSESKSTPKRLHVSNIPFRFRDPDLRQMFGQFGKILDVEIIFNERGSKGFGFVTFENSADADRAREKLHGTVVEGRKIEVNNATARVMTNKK
UAGGAUAAGAAAUAAGAAUAAAGUACCUUGACUUUGUUCACAGCAUGUAGGGUGAUGAGCACUCACAAUUGUUGACUAAAAUGCUGCUUUUAAAACAUAGGAAAGUAGAA: 10.7
GAACCCAGGAACAUCUACAGCAGUCCCCAGAAAAACAUUCUUUCUGAGGAGGUUUAGGUGAAGUUGUGUUUGUGAACUCGGAGUUCUUCUCUGUAUUUGCCCAGGAUGGA: 0.329
GAAAGGAAAAAAAAGUGAAAGUUGGUAUUUAUUUCUGUGCUUUAAUUGUCUCUGAAAAUAAUGACAGUUUAUAAAAUGUUUAGGUACAAAGGCAUAAAUGAUAAUAAGUA: 0.565
AUAAGUUUUAGACAUACAAGUGUCUAUCUCAAAGCAGAAGCAGAGAAAACAGAAAGAAGCUACAACAUGGCUCUAGUGUUGCAAUGUUUUCUAUAAGCACACUGACCUUA: 0.339
GCAAUCAAGGGGAGAAAACACAGUGUAAGCCGCUGUCAAUAAAUGACACCCAGACCUUCCAGCUGCACUCGGGGUGUGUUUUCAAUUUGUGGGAGCGAGAGGAUCAGAAC: 0.866
AAAAUUUGAGGGGAAGAGAAAAAACUUACACGAGCACCGAAUUUCAAAUAAACGAAAAUGAGACAUGACCUCUUGCCCCUGGCUGUUCCUUUAGGAGUUCCCAAGCCCCU: 0.372
UGUCGAUCUUGAAUUCCCUGAAAAAAUUUCUAUAGGAAAUGAAGCUUCCCUGGUCCCCUCCUUUCUGGCCAUUGUCAUCCAUUUCCCAGUUAGGGCAACAAUGAAGGAGG: 0.631
UCUCGGAUAUGGGUACUGUAUUUGAAAGCUGUUAGCUUUGUCAACACGCAUUGUCCUUGUCAUUUGGGCCCCGAGCUCUGACCCUCGUGUCUGACGCGGCCACCUCUUUC: 0.281
AAUGUCAGUGAACAUGAGUAUUACUUCAAAAUCUUACAUCACUUGAUGCUAUAUUCAUUUAUGUCUAAAUCUCUGCUAACAGAUGAAAAUAAUAAAAUUCUAAUAAAAGU: 0.813

For quick reference, copied from above (block 2):
B5 (UBE4A RING domain): 0
KRQCSDVDDICSICQAEFQKPILLICQHIFCEECMTLWFNREKTCPLCRTVISDHINKW (RNFT1 RING domain (UniProt Q5M7Z0)): 8880
MANWVFCNRCFQPPHRTSCFSLTNCGHVYCDACLGKGKKNECLICKAPCRTVLLSK (RNF212 RING domain (UniProt Q495C1)): 0
B2 (TRIM38 RING domain): 0
B4 (RNF4 RING domain): 0
B8 (RNF150 RING domain): 0
B6 (NSMCE1 RING domain): 2510
B7 (RNF112 RING domain): 0
ISNDSETLEECMVCSDMKRDTLFGPCGHIATCSLCSPRVKKCLICKEQVQSRTKIE (MIB1 RING domain (UniProt Q86YT6)): 0
